{"data": "Experimental data of several laboratories", "cell line": "HepG2", "note": "Compare with care: the assays were run in different laboratories. ± gives the spread as reported."}
{"SMILES": "COc1ccc(-n2nc(C(C)=O)s/c2=N\\N=C(/C)c2ccc(NC(=O)c3ccccc3)cc2)cc1", "setting": "0.625 µM", "endpoint": "viability", "value": "50.2%"}
{"SMILES": "Nc1ccn([C@H]2CC[C@@H](CO)O2)c(=O)n1", "assay": "qPCR", "setting": "0.2 µM, 10 days, 3", "scale": "baseline: untreated", "endpoint": "mitochondrial DNA content", "value": "57 ± 10.4%"}
{"SMILES": "CN(CCOc1ccc(CC2SC(=O)NC2=O)cc1)c1ccccn1 (stereo not shown)", "assay": "mitochondrial membrane potential, TMRE staining", "setting": "24 h", "endpoint": "representative mode point of departure", "value": "56.2 µM"}
{"SMILES": "CCOC(=O)c1nn(-c2cccc(Cl)c2)/c(=N/N=C(\\C)c2ccc(NC(=O)c3ccccc3)cc2)s1", "assay": "MTT", "setting": "1.25 µM", "endpoint": "cytotoxicity", "value": "97.3%"}
{"SMILES": "CCOC(=O)/C=C\\C(=O)OCC", "assay": "high content imaging, item: cell count", "setting": "24 h, distribution mode 1", "endpoint": "point of departure", "value": "22.4 µM"}
{"SMILES": "CC(=O)c1nn(-c2ccc(Cl)cc2)/c(=N/N=C(\\C)c2ccc(NC(=O)c3ccc(Cl)cc3)cc2)s1", "setting": "0.625 µM", "endpoint": "viability", "value": "98.1%"}
{"SMILES": "COc1ccc(NC(=O)c2c(Nc3ccccc3)sc(C(=O)NN=Cc3ccc(OC)c(O)c3)c2NC(C)=O)cc1", "assay": "ELISA", "setting": "IC50, 24 h", "endpoint": "active caspase-3 level", "value": "263 ± 16.1 pg/mL"}
{"SMILES": "CC(=O)c1nn(-c2ccc(C)cc2)/c(=N/N=C(\\C)c2ccc(NC(=O)c3ccccc3)cc2)s1", "assay": "MTT", "setting": "0.625 µM", "endpoint": "cytotoxicity", "value": "94.6%"}
{"SMILES": "O=C(O)Cc1ccccc1Nc1c(Cl)cccc1Cl", "assay": "protein level, item: HIF-1α", "setting": "6 h", "endpoint": "representative mode point of departure", "value": "219 µM"}
{"SMILES": "COc1ccc(NC(=O)c2c(Nc3ccccc3)sc(C#N)c2NC(=O)CNc2ccc(Cl)cc2)cc1", "assay": "annexin V-FITC/PI", "setting": "concentration not given", "endpoint": "late apoptotic cells", "value": "7.85 ± 0.95%"}
